Experimental data collected from several papers.
Each line is one published result; not all experiments were run side by side. Several values in a cell are separate wells, animals, samples, runs or records. Numbers after ± are the reported error.

CNC(=O)c1ccc(-c2cnc3ncc(Cc4ccc5ncccc5c4)n3n2)cc1F — adverse event incidence (phase 1 clinical trial, refers to: peripheral edema; other expansion cohort; oral, 600 mg twice daily, grade 3 or 4): 0%
Cc1ccc([C@@H]2O[C@H](CO)[C@@H](O)[C@H](O)[C@H]2O)cc1Cc1ccc(-c2ccc(F)cc2)s1 — urinary calcium excretion change (Japanese type 2 diabetes patients; 25 mg, day 17, 24 h urine collection; relative to: baseline): -7.71 mg
Cn1ncc(S(=O)(=O)NC2CCOc3c(Cl)cccc32)c1C(=O)O (stereo not shown) — DLS scattered light intensity (colloidal aggregate formation, dynamic light scattering; 50 mM potassium phosphate buffer; 200 µM, pH 7.0, 1% DMSO; higher = more aggregation): 282000 counts/s
COc1cc2c(cc1OC)CN(CCc1ccc(NC(=O)c3cc(OC)c(OC)cc3NC(=O)c3cnc4ccccc4c3)cc1)CC2 — drug loss on filter (0.22 µm nylon filter): < 1%
C[C@H](CCC(=O)O)[C@H]1CC[C@H]2[C@@H]3[C@H](O)C[C@@H]4C[C@H](O)CC[C@]4(C)[C@H]3C[C@H](O)[C@]12C — daily mean concentration (human, plasma; endogenous baseline diurnal): 41 ± 9.6 nM
C=CC(=O)N1CCC([C@@H]2CCNc3c(C(N)=O)c(-c4ccc(Oc5ccccc5)cc4)nn32)CC1 — stability relative error (rat plasma; 400 ng/mL, 3 h, room temperature; relative to: nominal concentration): -3.1%
CC(=O)N(C)[C@H]1CCN(C(=O)c2cnc3c(c2)C[C@](C)(c2ccc(F)cc2)N3)C1 — serious adverse events (healthy male subjects, multiple rising dose; oral, 30 mg once daily): 0%
CNC(=O)c1cc(Oc2ccc(NC(=O)Nc3ccc(Cl)c(C(F)(F)F)c3)c(F)c2)cc[n+]1[O-] — metabolite to parent AUC ratio (wild-type mice, plasma; oral, molecular weight corrected, together with: regorafenib single dose): 10.5%
O=C(O)CC[C@H](NC(=O)N[C@@H](CCCCNC(=O)[C@H](Cc1ccc2ccccc2c1)NC(=O)[C@H]1CC[C@H](CNC(=O)CN2CCN(CC(=O)O)CCN(CC(=O)O)CCN(CC(=O)O)CC2)CC1)C(=O)O)C(=O)O — tumour-to-tissue ratio (male BALB/c nude mice, LS174T-PSMA xenografts, kidney; intravenous, 0.3 nmol, 2 h, radiolabelled (111In or 99mTc); relative to: tumour over kidney): 3 ± 1.5
C[C@@H](N)C1CCN(S(=O)(=O)c2cccc3cnccc23)CC1 — diastolic blood pressure reduction (healthy volunteers; 250 mg, 2 h, standing; relative to: baseline): -19.7 mmHg
Cn1ncc(S(=O)(=O)NC(c2ccc(Cl)cc2)c2cccc(Cl)c2)c1C(=O)O (stereo not shown) — DLS scattered light intensity (colloidal aggregate formation, dynamic light scattering; 50 mM potassium phosphate buffer; 200 µM, pH 7.0, 1% DMSO; higher = more aggregation): 498000 counts/s
O=C(O)CCC(=O)O.[2H]C([2H])([2H])Oc1cc(C)c2[nH]ccc2c1CN1CC[C@@H](C2CC2)C[C@H]1c1ccc(C(=O)O)cc1 — subjects with elevated LDL TEAE (multiple ascending dose; healthy Chinese subjects; 100 mg twice daily): 0%
CC(C)C[C@H](NC(=O)[C@@H](Cc1c[nH]c2ccccc12)NC(=O)[C@H](Cc1ccc(O)cc1)NC(=O)[C@H](CO)NC(=O)[C@H](Cc1c[nH]c2ccccc12)NC(=O)[C@H](Cc1c[nH]cn1)NC(=O)[C@@H]1CCC(=O)N1)C(=O)N[C@@H](CCCNC(=N)N)C(=O)N1CCC[C@H]1C(=O)NCC(N)=O — patients, drug-related Obesity TEAEs (Chinese CPP girls; intramuscular, 22.5 mg, 12 months, day 1, month 6): 3.2%
Cc1nc(-c2ccc(OCC(C)C)c(C#N)c2)sc1C(=O)O — body weight (KM mouse, chronic hyperuricaemia model; dose not given, day 1): 25.3 g and 24.9 g and 24.3 g and 25.8 g and 26.7 g and 24.6 g
c1ccc(-c2nc(N3CCC(c4ccccn4)C3)c3ccccc3n2)nc1 (stereo not shown) — volume of distribution at steady state (female Balb/c mice, plasma; intravenous, 2 mg/kg, together with: ABT 2 h prior): 0.9 L/kg
CCN(CC)/C(N)=N\c1ccc(NC(=O)c2ccc(C(=O)Nc3ccc(/N=C(\N)N(CC)CC)cc3)cc2)cc1 — HC50 (haemolysis; sheep erythrocytes; 1 h, pH 7.5): > 128 µg/mL
COc1ccc([C@@H](O)c2cc(-c3ncnc4cc(N5CCOCC5)ccc34)c(F)cc2Cl)nn1 — asthenia TEAE incidence (locally advanced rectal cancer patients; 50 mg, together with: capecitabine and radiotherapy): 0%
CC(C)[C@H](N)C(=O)NCCCS(=O)(=O)O — AUC(0-12) (human both sexes, plasma; oral, 171 mg once daily, day 1, fasted capsule): 6260 ng·h/mL
COc1cccc(Cl)c1[C@@H]1C[C@H]1NS(=O)(=O)c1ccsc1C(=O)O — DLS scattered light intensity (colloidal aggregate formation, dynamic light scattering; 50 mM potassium phosphate buffer; 200 µM, pH 7.0, 1% DMSO; higher = more aggregation): 2.5e+07 counts/s
CN1CCN(c2cccc3c2CCN(C(=O)/C=C/c2c(-n4cnnn4)ccc(Cl)c2F)[C@@H]3C(=O)Nc2ccc(C(=O)O)cc2)C(=O)C1 — subjects with treatment-related adverse event (healthy human subjects; intravenous infusion, 9 mg/h, 5 days): 0%
Cc1c(-c2ccc(N3CCc4cccc(C(=O)Nc5nc6ccccc6s5)c4C3)nc2C(=O)O)cnn1CC12CC3(C)CC(C)(C1)CC(OCCNCC[C@H](O)CO)(C3)C2 — PR interval change (anesthetized male beagle dogs; intravenous infusion, 0.3 mg/kg/min, 30 min; relative to: vehicle): -1 ms
Cc1cc(Nc2ccc(S(F)(F)(F)(F)F)cc2)n2nc(C(C)(F)F)nc2n1 — adverse event Chills (Plasmodium vivax malaria patients; oral, 400 mg): 0%
CCn1cc(C(=O)N2CCOCC2)c(=O)c2cc(NC3Cc4ccccc4C3)cnc21 — AUC(0-12) (human, fed; oral suspension, 600 mg/day twice daily, day 1, arithmetic mean): 7160 ng·h/mL
C[C@H]1[C@H]2N(C(=O)CN(C)N2C(=O)NCc2ccccc2)[C@@H](Cc2ccc(OP(=O)(O)O)cc2)C(=O)N1Cc1cccc2cccnc12 — AUC(0-24 h) (patients, plasma; intravenous infusion, 280 mg/m2 over 4 h, median): 7260 ng·h/mL
O=C(Nc1nc2cccc(-c3ccc(CN4CCS(=O)(=O)CC4)cc3)n2n1)C1CC1 — treatment-emergent adverse events (refers to: nervous system disorders; human rheumatoid arthritis patients; oral, 75 mg once daily, 4 weeks, regardless of relatedness): 4.5%
NC1(C(=O)N[C@@H](CCO)c2ccc(Cl)cc2)CCN(c2nc[nH]c3nccc2-3)CC1 — incidence of Nausea (metastatic CRPC patients; 480 mg b.i.d., any grade, treatment-related, together with: enzalutamide 160 mg daily): 40%
O=c1[nH]c(=O)n([C@H]2C[C@H](O)[C@@H](CO)O2)cc1CCC[18F] — blood concentration (CD-1 nu/nu male mice, RG2 tumour, blood; intravenous, dose not given, 2 h, co-injection): 0.31 ± 0.11 %ID/g
CNC(=O)c1cc(Oc2ccc(NC(=O)Nc3cc(C(C)(C)C)nn3-c3ccc4ncccc4c3)c(F)c2)ccn1 — patients with nervous system disorder AE (refers to: worst grade 3; human; oral, dose not given, cycles 1 and 2, High AUC(0-4 h) subgroup): 6%
CC[C@H](C)[C@H](NC(=O)[C@H](Cc1ccccc1)NC(=O)[C@H](CCC(=O)O)NC(=O)[C@H](CCCCNC(=O)COCCOCCNC(=O)COCCOCCNC(=O)CC[C@H](NC(=O)CCCCCCCCCCCCCCCCC(=O)O)C(=O)O)NC(=O)[C@H](C)NC(=O)[C@H](C)NC(=O)[C@H](CCC(N)=O)NC(=O)CNC(=O)[C@H](CCC(=O)O)NC(=O)[C@H](CC(C)C)NC(=O)[C@H](Cc1ccc(O)cc1)NC(=O)[C@H](CO)NC(=O)[C@H](CO)NC(=O)[C@@H](NC(=O)[C@H](CC(=O)O)NC(=O)[C@H](CO)NC(=O)[C@@H](NC(=O)[C@H](Cc1ccccc1)NC(=O)[C@@H](NC(=O)CNC(=O)[C@H](CCC(=O)O)NC(=O)C(C)(C)NC(=O)[C@@H](N)Cc1cnc[nH]1)[C@@H](C)O)[C@@H](C)O)C(C)C)C(=O)N[C@@H](C)C(=O)N[C@@H](Cc1c[nH]c2ccccc12)C(=O)N[C@@H](CC(C)C)C(=O)N[C@H](C(=O)N[C@@H](CCCNC(=N)N)C(=O)NCC(=O)N[C@@H](CCCNC(=N)N)C(=O)NCC(=O)O)C(C)C — placebo-subtracted change in QTcI (QT interval corrected for heart rate, 12-lead Holter ECG; healthy human subjects; subcutaneous, 1.5 mg once weekly, 25 h post-dose, steady state; relative to: placebo, time-matched baseline): -4.6 ms
Nc1ncnc2c1ncn2[C@H]1C[C@@H]2OP(=O)(O)OC[C@H]3O[C@@H](n4cnc5c(N)ncnc54)C[C@@H]3OP(=O)(O)OC[C@H]2O1 — MCV (non-tumor-bearing mice, blood; intravenous, 1 mg/kg, toxicity study): 38.8 ± 0.41 fL
C=CCN1CC(=O)N2[C@@H](Cc3ccc(O)cc3F)C(=O)N(Cc3cccc(N4CC(N5CCN(CC)CC5)C4)n3)C[C@@H]2N1C(=O)NCc1ccccc1 — treatment-related nausea (advanced solid tumour patients; oral, 160 mg twice daily, grade ≥3, dose-escalation): 0%
COc1ccc2[nH]c([S+]([O-])Cc3ncc(C)c(OC)c3C)nc2c1 (stereo not shown) — t1/2 (healthy Chinese volunteers, CYP2C19 intermediate metabolizers; oral, 20 mg, enteric-coated tablets): 0.99 ± 0.24 h
Cn1cc(Nc2nccc(-c3ccc4c(c3)CN(C3COC3)CC[C@H]4NC(=O)c3cn(C(C)(C)C)nn3)n2)cn1 — plasma cell count change (human, whole blood; 150 mg twice daily, day 7; relative to: pre-dose baseline): -73.7%
N#Cc1ccc2c(c1)[C@H]1CCCN(C(=O)c3ccc4[nH]cnc4c3)[C@H]1C2 — mean ACTH level (human; 10 mg, day 15): 6.9 pmol/L
C=C(NC(=O)c1nccc(OC)c1O)C(=O)O[C@@H](C)[C@H](OC(=O)C(C)C)[C@@H](Cc1ccccc1)C(=O)O — Freundlich coefficient KF (soil adsorption; clay loam soil; pH 6.8, organic carbon 0.5 %): 98.6 mL/g
CC#CC(=O)N1CC[C@@H](n2c(=O)n(-c3ccc(Oc4ccccc4)cc3)c3c(N)ncnc32)C1 — Tmax, median (human, fasting, plasma; oral, 160 mg once daily, cycle 1 day 28): 3 h
COC(=O)Nc1cccc(NS(=O)(=O)c2cc(Cl)cc(Cl)c2O)c1C — DLS scattered light intensity (colloidal aggregate formation, dynamic light scattering; 50 mM potassium phosphate buffer; 200 µM, pH 7.0, 1% DMSO; higher = more aggregation): 727000 counts/s
O=c1c2ccccc2oc2ccccc12 — solubility (tricaprin-tricaprylin mixture; 30 °C, tricaprin fraction 0.36): 0.0462 mole fraction
CNC(=O)c1ccc(-c2cnc3ncc(Cc4ccc5ncccc5c4)n3n2)cc1F — Tmax, median (human, plasma; oral, 300 mg twice daily, capsule, cycle 1 day 15): 2 h
CN(CC#N)C(=O)C[C@H](Nc1nc2ccccc2[nH]1)c1cccc(C(F)(F)F)c1 — apparent clearance (human; intravenous infusion, 5 mg/kg, 1 mg/mL formulation): 17.2 ± 4.71 L/h
Cc1cc(-c2nnc(N)nc2-c2ccc(F)cc2)cc(Cl)n1 — incidence of AE, immune-mediated, treatment-related (refers to: rash, grade ≥ 3; post-IO NSCLC patients; oral, 100 mg once daily): 0%
CC1(c2cc(F)ccc2F)CC1NC(=O)NCC1(C(=O)O)CCCC1 (stereo not shown) — DLS scattered light intensity (colloidal aggregate formation, dynamic light scattering; 50 mM potassium phosphate buffer; 200 µM, pH 7.0, 1% DMSO; higher = more aggregation): 1.66e+06 counts/s
CCc1cc(C(=O)NC)c2nccc(N3CCc4c(cc(Cn5ccnc5)cc4-c4cn(C)nc4C(F)(F)F)C3=O)c2c1 — change in clinical chemistry or haematology parameter (refers to: Lymph; Sprague Dawley rat; oral, 50 mg/kg once daily, 7 days; relative to: vehicle): 0.64%
COCCCNC(=N)c1ccc(NC(=O)c2ccc(C(=O)Nc3ccc(C(=N)NCCCOC)cc3)cc2)cc1 — HC50 (haemolysis; sheep erythrocytes; 1 h, pH 7.5): > 128 µg/mL
Cc1cc(-c2nccc3c2ccn3CC(=O)Nc2ccc(-c3cnccn3)cn2)ccn1 — subjects with procedural pain (human; 20 mg once daily, multiple ascending dose): 0%
COc1cc2nccc(Oc3ccc(NC(=O)c4cc5c(n(-c6ccccc6)c4=O)CCCC5=O)nc3)c2cc1OC — grade ≥3 Anaemia patients (relapsed or refractory AML; oral, 10 mg once daily): 28.6%
CCCCCCOC(=O)NC(=N)c1ccc(NCc2nc3cc(C(=O)N(CCC(=O)OCC)c4ccccn4)ccc3n2C)cc1 — participants with TEAE rhinorrhoea (human; oral, 75 mg, compound alone): 0%
CCCCCCCOc1ccc(CCC(N)(CO)CO)cc1C(F)(F)F.Cl — urinary excretion (healthy men, urine; oral, 0.75 mg once daily, day 21, fed state; relative to: dose): 0.151%
C[C@@H](Oc1ccc(S(C)(=O)=O)cc1C(=O)N1C[C@@H]2C[C@]2(c2cc(C(F)(F)F)on2)C1)C(F)(F)F — fraction excreted in urine (young healthy humans, urine; oral, 50 mg, 0 to 24 h, single dose): 2.09%
Cc1cc(N2CCc3c(c(C)nn3CC34CCC(NC(=O)[C@@H]5COCCN5)(CC3)CC4)C2)c2cnn(C)c2n1 — blood concentration (129/Sv mice, blood; oral, 1.5 mg/kg, 3 h, together with: TLR7 agonist ssRNA): 70 ± 4 nM
Cc1ccc(Sc2ccccc2N2CCNCC2)c(C)c1 — participants with TEAE (refers to: blood in urine; healthy adult men; oral, 10 mg daily, 12 days): 0%
CN1C(=O)[C@@H](NC(=O)c2nnc(Cc3ccccc3)[nH]2)COc2cccnc21 — Tmax (human, plasma; oral, 100 mg once daily, day 1, median): 3 h
Nc1ccn([C@@H]2O[C@H](CO)[C@@H](O)C2(F)F)c(=O)n1 — Tmax, median (refers to: dFdU; human, plasma; intravenous, 1000 mg/m^2, together with: after paricalcitol): 1.25 h
CC(C)c1nc(N(C)S(C)(=O)=O)nc(-c2ccc(F)cc2)c1/C=C/[C@@H](O)C[C@@H](O)CC(=O)O — moderate TEAE incidence (healthy human volunteers; oral, 10 mg, 6 days, monotherapy; relative to: subjects): 0%
CCc1ccc(C(=O)Oc2ccc(C#N)c(F)c2)cc1 — concentration (refers to: compound; human pregnant women, female fetuses, maternal serum; dose not given, paired maternal-cord samples, mean): 3.49 ng/mL
